Experimental data from different studies.
Numbered parts are unrelated; each lists some results of a single study. “And” joins repeats or separate records; there may be more than shown. Changes are numbered by the printed parent chain.
Chain of UniProt P54756 (whole entry, looked up): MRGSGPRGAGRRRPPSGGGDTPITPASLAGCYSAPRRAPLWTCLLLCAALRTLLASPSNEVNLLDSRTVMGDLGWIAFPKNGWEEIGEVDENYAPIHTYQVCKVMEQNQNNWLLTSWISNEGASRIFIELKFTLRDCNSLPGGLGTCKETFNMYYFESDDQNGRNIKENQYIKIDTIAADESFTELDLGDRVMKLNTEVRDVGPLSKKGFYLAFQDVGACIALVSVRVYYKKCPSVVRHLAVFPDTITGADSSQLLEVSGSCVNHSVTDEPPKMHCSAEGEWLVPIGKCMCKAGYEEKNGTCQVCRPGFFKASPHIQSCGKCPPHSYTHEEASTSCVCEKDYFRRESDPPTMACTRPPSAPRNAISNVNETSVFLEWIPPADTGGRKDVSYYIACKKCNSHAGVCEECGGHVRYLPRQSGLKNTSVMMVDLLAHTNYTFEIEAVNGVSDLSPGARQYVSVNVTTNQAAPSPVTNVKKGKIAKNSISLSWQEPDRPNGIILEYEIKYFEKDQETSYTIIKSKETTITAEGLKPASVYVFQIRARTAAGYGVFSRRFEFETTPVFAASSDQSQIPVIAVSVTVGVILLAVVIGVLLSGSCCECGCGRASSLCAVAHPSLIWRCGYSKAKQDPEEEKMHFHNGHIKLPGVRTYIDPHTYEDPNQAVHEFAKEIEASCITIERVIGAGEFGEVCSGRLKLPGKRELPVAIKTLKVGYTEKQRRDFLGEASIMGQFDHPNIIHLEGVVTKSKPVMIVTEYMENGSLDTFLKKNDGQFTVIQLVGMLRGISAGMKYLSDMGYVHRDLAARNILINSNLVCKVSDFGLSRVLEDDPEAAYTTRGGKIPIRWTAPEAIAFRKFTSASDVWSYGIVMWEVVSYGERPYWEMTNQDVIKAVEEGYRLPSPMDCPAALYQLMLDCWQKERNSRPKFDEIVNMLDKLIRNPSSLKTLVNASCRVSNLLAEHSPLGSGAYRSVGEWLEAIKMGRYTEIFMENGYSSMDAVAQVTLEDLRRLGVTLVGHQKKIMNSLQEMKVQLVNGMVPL
Chain of UniProt P07948 (whole entry, looked up): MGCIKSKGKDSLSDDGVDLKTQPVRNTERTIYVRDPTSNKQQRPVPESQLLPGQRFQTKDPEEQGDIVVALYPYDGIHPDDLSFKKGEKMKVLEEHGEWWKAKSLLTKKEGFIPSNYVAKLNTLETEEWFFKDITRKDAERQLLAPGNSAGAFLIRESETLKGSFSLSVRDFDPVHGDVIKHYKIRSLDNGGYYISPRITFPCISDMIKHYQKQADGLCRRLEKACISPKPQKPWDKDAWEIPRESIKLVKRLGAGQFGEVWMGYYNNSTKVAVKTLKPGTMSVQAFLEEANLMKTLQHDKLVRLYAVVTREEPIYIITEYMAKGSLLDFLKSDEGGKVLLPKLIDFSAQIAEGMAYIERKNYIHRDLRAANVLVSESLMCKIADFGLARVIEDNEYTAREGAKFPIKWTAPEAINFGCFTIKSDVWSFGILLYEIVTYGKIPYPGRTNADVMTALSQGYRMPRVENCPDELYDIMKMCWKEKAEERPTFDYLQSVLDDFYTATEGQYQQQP
Chain of UniProt P51957 (whole entry, looked up): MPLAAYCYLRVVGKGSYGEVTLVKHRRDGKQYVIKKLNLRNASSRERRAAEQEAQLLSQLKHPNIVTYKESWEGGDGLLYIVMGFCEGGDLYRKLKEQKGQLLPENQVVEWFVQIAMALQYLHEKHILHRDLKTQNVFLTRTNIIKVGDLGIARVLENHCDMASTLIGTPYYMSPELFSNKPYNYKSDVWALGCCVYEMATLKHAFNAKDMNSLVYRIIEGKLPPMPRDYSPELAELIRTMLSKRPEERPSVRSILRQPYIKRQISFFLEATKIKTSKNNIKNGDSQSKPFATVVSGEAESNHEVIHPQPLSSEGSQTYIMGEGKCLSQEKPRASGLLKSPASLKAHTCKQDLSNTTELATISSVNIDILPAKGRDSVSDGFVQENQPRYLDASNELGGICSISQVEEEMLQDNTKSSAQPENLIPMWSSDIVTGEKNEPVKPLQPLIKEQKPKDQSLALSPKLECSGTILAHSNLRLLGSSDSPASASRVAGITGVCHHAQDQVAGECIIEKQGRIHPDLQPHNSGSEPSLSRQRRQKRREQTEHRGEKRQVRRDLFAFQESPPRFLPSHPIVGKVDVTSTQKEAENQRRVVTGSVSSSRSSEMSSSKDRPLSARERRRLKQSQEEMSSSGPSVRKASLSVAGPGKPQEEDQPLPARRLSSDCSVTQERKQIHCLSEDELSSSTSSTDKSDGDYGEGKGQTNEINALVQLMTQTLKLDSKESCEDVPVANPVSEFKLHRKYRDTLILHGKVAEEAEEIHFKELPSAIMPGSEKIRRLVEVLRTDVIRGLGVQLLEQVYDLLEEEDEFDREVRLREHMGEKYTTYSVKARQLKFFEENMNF
Chain of UniProt Q12851 (whole entry, looked up): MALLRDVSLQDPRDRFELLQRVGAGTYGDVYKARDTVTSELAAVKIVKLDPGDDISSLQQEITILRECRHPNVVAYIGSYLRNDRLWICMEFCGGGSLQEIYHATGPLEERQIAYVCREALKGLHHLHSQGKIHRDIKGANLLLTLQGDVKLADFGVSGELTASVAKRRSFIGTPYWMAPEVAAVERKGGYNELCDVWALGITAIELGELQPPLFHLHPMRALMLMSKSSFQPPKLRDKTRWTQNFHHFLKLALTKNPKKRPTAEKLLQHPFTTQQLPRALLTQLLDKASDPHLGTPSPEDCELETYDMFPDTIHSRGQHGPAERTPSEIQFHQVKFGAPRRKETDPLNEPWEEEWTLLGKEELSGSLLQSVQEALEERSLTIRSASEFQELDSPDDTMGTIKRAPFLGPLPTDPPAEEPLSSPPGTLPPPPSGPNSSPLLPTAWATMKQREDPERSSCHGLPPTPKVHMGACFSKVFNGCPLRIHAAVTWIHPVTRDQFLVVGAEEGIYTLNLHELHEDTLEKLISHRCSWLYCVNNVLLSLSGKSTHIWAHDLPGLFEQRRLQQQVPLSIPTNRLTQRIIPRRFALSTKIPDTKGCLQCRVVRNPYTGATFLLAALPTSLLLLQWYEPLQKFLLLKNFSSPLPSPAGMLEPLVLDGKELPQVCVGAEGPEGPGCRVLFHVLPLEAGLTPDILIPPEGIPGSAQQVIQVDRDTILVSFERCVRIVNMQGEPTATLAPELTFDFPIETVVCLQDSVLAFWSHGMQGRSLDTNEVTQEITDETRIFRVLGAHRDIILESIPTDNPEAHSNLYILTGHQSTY
Chain of UniProt Q02779 (whole entry, looked up): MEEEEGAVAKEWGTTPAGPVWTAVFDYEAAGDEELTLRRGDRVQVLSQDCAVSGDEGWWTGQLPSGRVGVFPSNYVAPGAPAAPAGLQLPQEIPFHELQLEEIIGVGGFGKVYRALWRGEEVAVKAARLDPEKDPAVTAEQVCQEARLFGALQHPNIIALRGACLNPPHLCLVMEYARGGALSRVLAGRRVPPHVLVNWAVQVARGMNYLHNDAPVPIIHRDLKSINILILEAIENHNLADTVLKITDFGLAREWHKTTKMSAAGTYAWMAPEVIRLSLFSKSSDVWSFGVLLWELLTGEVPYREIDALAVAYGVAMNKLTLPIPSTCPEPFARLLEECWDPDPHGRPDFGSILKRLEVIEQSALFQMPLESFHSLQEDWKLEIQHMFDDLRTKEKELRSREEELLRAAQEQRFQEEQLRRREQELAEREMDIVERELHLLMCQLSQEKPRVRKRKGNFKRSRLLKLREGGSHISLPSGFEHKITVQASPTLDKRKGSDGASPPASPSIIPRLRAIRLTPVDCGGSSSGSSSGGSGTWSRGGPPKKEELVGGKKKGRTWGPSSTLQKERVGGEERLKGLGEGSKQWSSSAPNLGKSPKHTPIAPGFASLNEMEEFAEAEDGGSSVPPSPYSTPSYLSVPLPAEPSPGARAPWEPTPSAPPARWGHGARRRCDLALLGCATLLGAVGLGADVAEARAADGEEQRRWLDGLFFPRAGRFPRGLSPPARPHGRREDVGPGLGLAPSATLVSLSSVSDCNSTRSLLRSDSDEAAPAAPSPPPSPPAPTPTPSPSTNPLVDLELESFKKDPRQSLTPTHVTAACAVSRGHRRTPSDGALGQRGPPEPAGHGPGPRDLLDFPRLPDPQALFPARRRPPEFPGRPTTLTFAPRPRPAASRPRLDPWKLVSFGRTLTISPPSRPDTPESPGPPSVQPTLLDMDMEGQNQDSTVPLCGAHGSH
Chain of UniProt P52564 (whole entry, looked up): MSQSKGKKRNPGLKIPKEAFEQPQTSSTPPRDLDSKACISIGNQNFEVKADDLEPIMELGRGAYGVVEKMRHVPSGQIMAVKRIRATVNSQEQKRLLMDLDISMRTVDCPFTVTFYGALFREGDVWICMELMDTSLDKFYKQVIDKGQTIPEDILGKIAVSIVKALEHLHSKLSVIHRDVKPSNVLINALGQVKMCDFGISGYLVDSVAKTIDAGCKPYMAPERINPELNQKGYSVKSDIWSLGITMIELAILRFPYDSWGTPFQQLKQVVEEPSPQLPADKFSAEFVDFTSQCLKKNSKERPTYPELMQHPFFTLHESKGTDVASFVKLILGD

Study 1 — cell line: normal organoid sample D; technique: CellTiter-Glo; species: human; medium: normal-adjacent epithelium; concentration: 1 µM; relative to: DMSO
SMILES	viability
Cc1c(C(=O)O)cc(-c2ccc(C3CCNCC3)cc2)c2ccc(-c3ccc(C(F)(F)F)cc3)cc12	117% and 111%
O=C(Nc1cnc(Oc2ccc(F)cc2)nc1)N1CCc2ncccc2[C@@H]1c1ccc(F)cc1	144% and 134%
Cc1ccc2[nH]c(CNCCCc3ccncc3)cc(=O)c2c1	101% and 105%

Study 2 — technique: RNAcompete; form: RNA; medium: in vitro; concentration: 20 nM; notes: 7-mer, probes averaged, single round; relative to: mean of 7-mers; reading: higher = stronger binding
Target: PABPC1L2, full length, GST fusion (mouse, UniProt A0ABA7IW68)
Construct (chain): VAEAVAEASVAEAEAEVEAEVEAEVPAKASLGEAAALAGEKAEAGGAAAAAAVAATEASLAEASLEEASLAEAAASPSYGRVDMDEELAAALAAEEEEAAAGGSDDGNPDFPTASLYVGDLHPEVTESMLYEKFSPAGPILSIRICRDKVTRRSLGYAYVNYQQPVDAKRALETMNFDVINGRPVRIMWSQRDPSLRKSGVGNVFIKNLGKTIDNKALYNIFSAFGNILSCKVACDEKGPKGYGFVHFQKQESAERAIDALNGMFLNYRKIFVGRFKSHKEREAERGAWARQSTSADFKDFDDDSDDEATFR
Oligonucleotide	7-mer Z-score
GCACUGA	0.00979
CAGACAA	0.396
GGAUUAU	-0.0754
GCUUGGG	0.075
UUGCGUC	-0.385
GCGCGCA	-0.295
UUGUCGG	-0.394
GCCAUCU	-0.354

Study 3 — read-out: enzyme activity; action: inhibitor; concentration: 0.5 µM; relative to: control
SMILES: COc1cc2ncnc(N3CCN(C(=O)Nc4ccc(Oc5ccccc5)cc4)CC3)c2cc1OC
target	remaining activity
NEK4 (Homo sapiens, UniProt P51957)	94.4%
MAP3K10 (Homo sapiens, UniProt Q02779)	92%
EPHA5 (Homo sapiens, UniProt P54756)	98.3%
LRRK2 (Homo sapiens, UniProt Q5S007)	98.3%
PRKG1 (Homo sapiens, UniProt Q13976)	85.6%
BTK (Homo sapiens, UniProt Q06187)	87.8%
MAP2K6 (Homo sapiens, UniProt P52564)	96%
MAP4K2 (Homo sapiens, UniProt Q12851)	94.7%
LYN (Homo sapiens, UniProt P07948)	97.8%

Study 4 — target: CCNF, cyclin fold, Cln2 fusion (human); technique: yeast growth competition, sequencing; medium: yeast; notes: strong parent motif; relative to: not given; reading: higher = stronger binding
Starting sequence: ORC1 docking peptide (human); PRARKRLELGNLG; partner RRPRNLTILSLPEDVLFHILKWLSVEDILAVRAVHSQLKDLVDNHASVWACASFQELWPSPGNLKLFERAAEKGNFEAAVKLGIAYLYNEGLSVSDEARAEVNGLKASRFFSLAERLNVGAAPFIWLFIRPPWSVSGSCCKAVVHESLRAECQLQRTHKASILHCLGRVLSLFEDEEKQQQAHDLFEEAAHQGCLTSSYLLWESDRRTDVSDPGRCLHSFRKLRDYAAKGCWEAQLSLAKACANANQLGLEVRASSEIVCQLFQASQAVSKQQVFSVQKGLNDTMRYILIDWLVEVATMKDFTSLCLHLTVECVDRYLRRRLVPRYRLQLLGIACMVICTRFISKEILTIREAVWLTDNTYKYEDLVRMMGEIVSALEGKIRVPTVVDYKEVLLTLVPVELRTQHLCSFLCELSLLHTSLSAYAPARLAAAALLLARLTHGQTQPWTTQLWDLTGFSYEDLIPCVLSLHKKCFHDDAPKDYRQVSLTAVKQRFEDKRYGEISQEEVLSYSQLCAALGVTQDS
Change	normalised enrichment score
PSARKRLELGNLG [R2S]	3.95
ARARKRLELGNLG [P1A]	3.13
PRFRKRLELGNLG [A3F]	0.97
PRARKRLELQNLG [G10Q]	2.61
PRRRKRLELGNLG [A3R]	1.57
PRARRRLELGNLG [K5R]	7.38
PRARKFLELGNLG [R6F]	3.24
PRAHKRLELGNLG [R4H]	1.37

Repeated from above (study 3):
target	remaining activity
EPHA5 (Homo sapiens, UniProt P54756)	98.3%
NEK4 (Homo sapiens, UniProt P51957)	94.4%
BTK (Homo sapiens, UniProt Q06187)	87.8%
LRRK2 (Homo sapiens, UniProt Q5S007)	98.3%
